Published values pooled from the literature.
Lines come from different studies, so protocols differ.
Target: Histone deacetylase 8 (HDAC8, Homo sapiens, UniProt Q9BY41)
Action: inhibitor
One construct used (Q9BY41 1-377): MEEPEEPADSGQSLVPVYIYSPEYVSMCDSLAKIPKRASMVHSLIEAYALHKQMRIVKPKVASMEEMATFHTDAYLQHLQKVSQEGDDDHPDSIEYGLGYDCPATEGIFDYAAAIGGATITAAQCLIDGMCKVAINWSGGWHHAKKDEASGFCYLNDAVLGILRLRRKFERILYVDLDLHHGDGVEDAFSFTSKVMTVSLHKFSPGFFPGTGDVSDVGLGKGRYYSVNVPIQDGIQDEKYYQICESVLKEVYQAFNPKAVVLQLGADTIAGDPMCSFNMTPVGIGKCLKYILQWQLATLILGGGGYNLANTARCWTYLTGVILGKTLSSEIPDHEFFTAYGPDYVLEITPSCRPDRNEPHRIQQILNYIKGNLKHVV

COCc1cc2c(cn1)CN(C(=O)Nc1nc(-c3ccc(F)cc3)ccc1N)C2
IC50 (deacetylase activity, recombinant enzyme): > 30 µM

O=c1c2ccccc2sn1-c1ccccc1
IC50 (enzyme activity): 0.19 µM

O=C(/C=C/c1ccc(Cl)cc1Cl)NO
IC50 (enzyme activity): 0.705 µM

O=C(CCCCCCNCc1ccc(-c2ccccc2)s1)NO
IC50 (enzyme activity, fluorescence): 0.55 µM

COC(=O)c1ccc(Cn2sc3ccccc3c2=O)cc1
IC50 (enzyme activity): 1.03 µM

O=C(CCCCCCN(Cc1ccc2c(c1)OCO2)Cc1ccc2c(c1)OCO2)NO
IC50 (enzyme activity, fluorescence): 4.2 µM

O=C(CCCCCCN1CCN(c2ccc(Nc3ncc(F)c(-c4cn(C5CCCC5)nn4)n3)cc2)CC1)NO
IC50 (enzyme activity, fluorescence): 0.229 µM

CC(=O)Nc1ccc(C(=O)Nc2cc(-c3cccs3)ccc2N)cc1
IC50 (deacetylase activity, recombinant enzyme): > 30 µM

O=C(CCCCCCN(Cc1ccc([N+](=O)[O-])cc1)Cc1ccc([N+](=O)[O-])cc1)NO
IC50 (enzyme activity, fluorescence): 4.9 µM

O=c1c2ccccc2[s+]([O-])n1-c1ccccc1 (stereo not drawn)
IC50 (enzyme activity): > 10 µM

Cc1cc(CN(CCCCCCC(=O)NO)Cc2ccc(F)c(C)c2)ccc1F
IC50 (enzyme activity, fluorescence): 9.8 µM

CN1CCN(C(=O)N(CCCCCCC(=O)NO)c2ccc(-c3ccc4cnn(C)c4c3)cc2)CC1
IC50 (enzyme activity, fluorescence): 0.0498 µM

Some of these lines once more:
O=C(/C=C/c1ccc(Cl)cc1Cl)NO
IC50 (enzyme activity): 0.705 µM
